Assay results collected from several papers.
Parts stem from different laboratories: compare values within a part only.

Block 1 — target: Sox, HMG box (Pigoraptor chileana); method: Spec-seq; molecule type: double-stranded DNA, one strand shown; matrix: in vitro; concentration: not given; notes: whole probe, mean of replicates; reference: not given; direction: lower = stronger binding; endpoint: relative binding energy
Residues (chain): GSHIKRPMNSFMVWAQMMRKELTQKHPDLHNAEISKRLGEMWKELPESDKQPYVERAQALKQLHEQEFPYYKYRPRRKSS
GAGTCGTCTCGTCAGCACCATTCCGCCGTAGAGCACTCAGGTC: 0.798 ln ratio
GAGTCGTCTCGTCAGCACCATTCAGCCGTAGAGCACTCAGGTC: -0.124 ln ratio
GAGTCGTCTCGTCAGCACCATCGGGCCGTAGAGCACTCAGGTC: 0.437 ln ratio

Block 2 — method: RNAcompete; molecule type: RNA; matrix: in vitro; concentration: 20 nM; notes: 7-mer, probes averaged, single round; reference: mean of 7-mers; direction: higher = stronger binding; endpoint: 7-mer Z-score
Target: PABPC1L2, full length, GST fusion (mouse, UniProt A0ABA7IW68)
Target sequence (chain): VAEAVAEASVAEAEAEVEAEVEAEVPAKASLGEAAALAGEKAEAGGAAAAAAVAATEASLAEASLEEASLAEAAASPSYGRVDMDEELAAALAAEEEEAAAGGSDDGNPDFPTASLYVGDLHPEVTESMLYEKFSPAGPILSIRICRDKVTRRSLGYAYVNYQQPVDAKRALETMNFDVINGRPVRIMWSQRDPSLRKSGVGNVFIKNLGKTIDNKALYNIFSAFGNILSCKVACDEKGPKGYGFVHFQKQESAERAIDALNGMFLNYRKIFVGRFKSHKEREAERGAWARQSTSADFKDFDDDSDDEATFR
UAGUAGU: -0.121
AUCAUAG: 0.0678
GCCUCAG: -0.351
UAACAGU: -0.05
GCCUAGA: -0.0264
GACUGGC: -0.119
GCAGCGC: -0.0536
UGGCCCG: -0.162

Block 3 — cell line: HEK-293T; effect on: pseudovirus infection; method: FDA-approved drug library screen; organism: VSV pseudotyped with SARS-CoV-2 spike; concentration: 10 µM; time: 16 h; reference: vehicle-treated; endpoint: GFP-positive cells
C[C@H](CCC(=O)O)[C@H]1CC[C@H]2[C@@H]3CC[C@@H]4C[C@H](O)CC[C@]4(C)[C@H]3CC[C@]12C: 104%
COc1cc(C)c(/C=C/C(C)=C/C=C/C(C)=C/C(=O)O)c(C)c1C: 78.4%
CCC1=C(C)CN(C(=O)NCCc2ccc(S(=O)(=O)NC(=O)N[C@H]3CC[C@H](C)CC3)cc2)C1=O: 83%

Block 4 — method: protein-binding microarray; molecule type: hairpin DNA; matrix: in vitro; concentration: not given; reference: not given; direction: higher = stronger binding; endpoint: median fluorescence; constant ends, left off below: GAGGCCG … CGGCCTCACACTC
Target: Cyclic AMP-responsive element-binding protein 1, full length (CREB1, Homo sapiens, UniProt P16220, residues 1-327)
UniProt P16220, sequence (whole entry, looked up): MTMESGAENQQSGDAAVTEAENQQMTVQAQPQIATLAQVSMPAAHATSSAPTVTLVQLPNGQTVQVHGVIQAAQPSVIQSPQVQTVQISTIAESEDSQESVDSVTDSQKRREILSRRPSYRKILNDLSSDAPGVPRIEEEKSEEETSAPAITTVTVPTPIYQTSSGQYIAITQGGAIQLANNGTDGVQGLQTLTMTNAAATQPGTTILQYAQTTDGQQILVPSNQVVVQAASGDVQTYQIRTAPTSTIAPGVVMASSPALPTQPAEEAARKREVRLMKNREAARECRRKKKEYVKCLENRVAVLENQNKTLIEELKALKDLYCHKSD
Notes: whole hairpin DNA, median over replicate spots
ACGACGTCGTGCCTCCTGGCACGACGTCGT (5mC at 9 35): 4180 a.u.
ACGACGTCGTGCCTCCTGGCACGACGTCGT (5mC at 9 15 29 32 35): 3150 a.u.
ACGACGTCGTGCCTCCTGGCACGACGTCGT (5mC at 15 29 35): 3310 a.u.
GCTGACGGCAGCCTCCTGGCTGCCGTCAGC: 3240 a.u.
ACGACGTCGTGCCTCCTGGCACGACGTCGT (5mC at 9 12 15 29 32 35): 2800 a.u.
ACGACGTCGTGCCTCCTGGCACGACGTCGT (5mC at 9 15 29 35): 4640 a.u.
GCGGACGTCAGCCTCCTGGCTGACGTCCGC (5mC at 9 35): 4520 a.u.

Block 5 — action: inhibitor; concentration: 20 µM; endpoint: inhibition
Target: Replicase polyprotein 1ab, nsp13 helicase (rep, Severe acute respiratory syndrome coronavirus 2, UniProt P0DTD1)
N=C(N)NCCC[C@H](N)C(=O)O: 5.79%
COC(F)(F)C(Cl)Cl: 8.43%
CCc1c2c(nc3ccc(O)cc13)-c1cc3c(c(=O)n1C2)COC(=O)[C@]3(O)CC: -0.86%
CC(=O)[C@H]1CC[C@H]2[C@@H]3C[C@H](C)C4=CC(=O)CC[C@]4(C)[C@H]3[C@@H](O)C[C@]12C: 2.27%
CN1CCC[C@H]1c1cccnc1: 4.65%
NCCCNCCCCNCCCN: 9.02%
CCOc1cc(C(=O)Nc2ccc(Cl)c(-c3nc4ccccc4[nH]3)c2)cc(OCC)c1OCC: 6.72%
Cn1nnc(-c2ccc(-c3ccc(N4C[C@H](COP(=O)(O)O)OC4=O)cc3F)cn2)n1: 7.03%
CC(C)=CCC[C@](C)(O)[C@H]1CC[C@]2(C)[C@@H]1[C@H](O)C[C@@H]1[C@@]3(C)CC[C@H](O)C(C)(C)[C@@H]3CC[C@]12C: 1.06%
C#C[C@]1(OC(=O)CCCCCC)CC[C@H]2[C@@H]3CCC4=CC(=O)CC[C@@H]4[C@H]3CC[C@@]21C: -4.04%
O=C1c2cccc(O)c2C(=O)c2c(O)cc(CO)cc21: 38.5%
CCn1c(-c2ccc(Cl)cc2)n[nH]c1=O: 11.4%
CC(C)NCC(O)c1cc(O)cc(O)c1 (stereo not drawn): 3.74%
CCn1cc(C(=O)O)c(=O)c2ccc(-c3ccncc3)cc21: 6.5%
CC(C)c1onc(-c2c(Cl)cccc2Cl)c1COc1ccc(/C=C/c2cccc(C(=O)O)c2)c(Cl)c1: 2.37%
Cc1cc(Nc2ncc(Cl)c(Nc3ccccc3S(=O)(=O)C(C)C)n2)c(OC(C)C)cc1C1CCNCC1: 6.94%
O=C1NC(=O)/C(=C/c2ccc3nccc(-c4ccncc4)c3c2)S1: 8.28%
N#CC(c1ccc(Cl)cc1)c1c(Cl)cc(-n2ncc(=O)[nH]c2=O)cc1Cl (stereo not drawn): 20.1%
CCOC(=O)[C@H](CCc1ccccc1)N[C@H]1CCc2ccccc2N(CC(=O)O)C1=O: 8.02%
Cc1nc2n(c(=O)c1CCN1CCC(c3noc4cc(F)ccc34)CC1)CCCC2O (stereo not drawn): 12.4%
O=C(CCc1ccncc1)NNC(=O)N1Cc2ccccc2Oc2ccc(Cl)cc21: 0.8%
CSc1ccc(C(=O)c2[nH]c(=O)[nH]c2C)cc1: 6.51%
CNC(=O)c1cc(Oc2ccc(NC(=O)Nc3ccc(Cl)c(C(F)(F)F)c3)cc2)ccn1: 15.3%
CO[C@@H]1[C@@H](O[C@@H]2O[C@H](C)[C@@H](O[C@H]3C[C@@](C)(O)[C@@H](OC(=O)CC(C)C)[C@H](C)O3)[C@H](N(C)C)[C@H]2O)[C@@H](CC=O)C[C@@H](C)[C@@H](O)/C=C/C=C/C[C@@H](C)OC(=O)C[C@H]1OC(C)=O: -0.74%
OCCC#Cc1nc(-c2ccc(F)cc2)c(-c2ccncc2)n1CCCc1ccccc1: 10.9%

Block 6 — organism: SARS-CoV-2; effect on: cytopathic effect; cells: Vero E6; concentration: 10 µM; endpoint: inhibition
CC(CN1CC(=O)NC(=O)C1)N1CC(=O)NC(=O)C1 (stereo not drawn): 0.06%
CNS(=O)(=O)C[C@H]1CC[C@H](N(C)c2ncnc3[nH]ccc23)CC1: -1.3%
Oc1ccc2ccccc2c1SSc1c(O)ccc2ccccc12: 0.6%

Block 7 — method: RNA Bind-n-Seq; molecule type: RNA; matrix: in vitro; concentration: not given; reference: input RNA pool; direction: higher = stronger binding; endpoint: bound/input enrichment
Target: RING finger protein unkempt homolog, zinc fingers 1-6, GST-SBP tag (UNK, Homo sapiens, UniProt Q9C0B0, residues 30-357)
Notes: RNA with constant flanks, human and mouse sites, ends assumed
Constant ends, left off below: GGGAGUUCUACAGUCCGACGAUC … CAACAGAGGAUUGAGCAUCA
Target sequence (chain): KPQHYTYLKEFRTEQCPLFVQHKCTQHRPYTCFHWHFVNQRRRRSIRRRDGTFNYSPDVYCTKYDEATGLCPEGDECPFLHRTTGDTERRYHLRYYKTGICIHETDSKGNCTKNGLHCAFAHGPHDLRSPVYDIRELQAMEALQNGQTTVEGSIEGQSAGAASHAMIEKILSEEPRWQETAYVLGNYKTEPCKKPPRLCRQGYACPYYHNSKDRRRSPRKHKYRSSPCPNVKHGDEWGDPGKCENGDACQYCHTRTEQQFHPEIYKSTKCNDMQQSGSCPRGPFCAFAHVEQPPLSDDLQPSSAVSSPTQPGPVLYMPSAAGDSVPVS
GGGAGCCCCAUUGCCUCUGUCUCCUUCGGUGCCUGCAGAGACUUUGUCUUCCGGCAUAAGGAUUCCCGUGGGAAAAGCCCCUCCAGGAGGGUGGCGGUGGUCAGGCUGCCGCUGGCCCAC: 0.101 ratio
UCCAUUGCCACCCUCUUGGUAUGGAUUGUAAUUGGAUUUCUGAAUUUUGAAAUUGUGGAAACCUACUUUCCUGGCUACAAUAGAAGUAUCUCCCGAACAGAAACGAUAAUACGAUUUGCU: 0.493 ratio
ACUGAGCCAUUUCCUAUUUUAAAUGGCUUCUACAGUAAAUUAACAACUCAGUUAUUAAACUAGCAGGAUCCUACAAUGAUACAUCUAGUGAAAGUAGAGUUAAUUAACUUAUUUCUAUUU: 0.358 ratio
CAAGGGGAAGACUUCAGUAGAACAUUUAAUGACCAUAAGCAAAAAUACUUGCAGCUCCAGCAAGAAAAAGAACAAGAACUUUCUAAGCUAAAAGAGACUGUAUACAAUUUGAGAGAAGAG: 0.373 ratio
CCAGAACUUGAUAAUGAAAAGCCAGCUGCUGUGGUUGCUCCUCUUACAACAGGAUACACCGUGAAAAUCAGUAAUUAUGGAUGGGAUCAGUCAGAUAAGUUUGUGAAAAUCUACAUUACC: 0.246 ratio
GCUUGUGCCACUCAGGCUAUCGUAAGUGUACUACUGAACUGUACGCAUCAAGAUGUGCAUUUAGGAGAGACAUUAUCAGAAUUUAAAGAAUUUUCUCAAAGUUUUGAUGCAGCUAUGAAG: 0.776 ratio
GGAAGGUAAGCCAGCAGGUGGUACCUUGUAGAUUGGUUCUCUUGAAGGCUGCUCUUGACAUCCCAGGGCACUGGCUUCUUCCUCCCUCCCCGCAAGGUGGGAGGUCCUGAGCGAGGUGUU: 0.0395 ratio
GACUCUCAUGUCAUUUGUAUACCUGUGGAUCUGCCCUGUAUUGUUAAUUCUAUUUUACAAAAUAGAGGAAGUGUCUAAUAUAUGUGCAUAGUCAGUUGUCCUUUUUGAAAAAUAGGUUGA: 0.193 ratio

Repeated from above (block 2):
UGGCCCG: -0.162
GCAGCGC: -0.0536
GACUGGC: -0.119
UAACAGU: -0.05
